Experimental data collected from several papers.
Each numbered part is a random draw from the data of one study; scales do not carry over between parts. “And” joins repeats or separate records; there may be more than shown.
Sequence of UniProt Q00526 (whole entry, looked up): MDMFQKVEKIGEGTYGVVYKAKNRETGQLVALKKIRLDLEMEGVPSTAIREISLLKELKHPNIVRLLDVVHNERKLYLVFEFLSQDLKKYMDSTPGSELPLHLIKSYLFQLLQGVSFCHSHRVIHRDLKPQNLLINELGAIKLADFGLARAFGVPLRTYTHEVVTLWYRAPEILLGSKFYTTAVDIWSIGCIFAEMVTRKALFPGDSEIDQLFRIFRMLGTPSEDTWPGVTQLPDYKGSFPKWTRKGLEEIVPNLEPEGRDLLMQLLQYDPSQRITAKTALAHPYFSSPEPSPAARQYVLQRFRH
Sequence of UniProt Q96D53 (whole entry, looked up): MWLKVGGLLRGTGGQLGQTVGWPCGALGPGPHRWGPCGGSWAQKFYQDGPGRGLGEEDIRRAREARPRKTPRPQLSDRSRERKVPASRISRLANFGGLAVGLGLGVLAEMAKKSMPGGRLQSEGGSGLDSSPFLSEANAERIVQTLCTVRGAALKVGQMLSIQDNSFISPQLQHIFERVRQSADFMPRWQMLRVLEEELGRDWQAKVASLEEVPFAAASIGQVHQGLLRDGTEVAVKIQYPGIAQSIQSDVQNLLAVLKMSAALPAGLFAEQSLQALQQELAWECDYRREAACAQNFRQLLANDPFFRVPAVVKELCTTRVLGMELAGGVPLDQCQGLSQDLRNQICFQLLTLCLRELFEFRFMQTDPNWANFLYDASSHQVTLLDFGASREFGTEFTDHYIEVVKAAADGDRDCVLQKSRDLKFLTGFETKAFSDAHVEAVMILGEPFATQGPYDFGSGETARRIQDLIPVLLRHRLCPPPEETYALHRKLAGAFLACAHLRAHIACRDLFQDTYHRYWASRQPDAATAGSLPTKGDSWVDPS
Sequence of UniProt Q6P3R8 (whole entry, looked up): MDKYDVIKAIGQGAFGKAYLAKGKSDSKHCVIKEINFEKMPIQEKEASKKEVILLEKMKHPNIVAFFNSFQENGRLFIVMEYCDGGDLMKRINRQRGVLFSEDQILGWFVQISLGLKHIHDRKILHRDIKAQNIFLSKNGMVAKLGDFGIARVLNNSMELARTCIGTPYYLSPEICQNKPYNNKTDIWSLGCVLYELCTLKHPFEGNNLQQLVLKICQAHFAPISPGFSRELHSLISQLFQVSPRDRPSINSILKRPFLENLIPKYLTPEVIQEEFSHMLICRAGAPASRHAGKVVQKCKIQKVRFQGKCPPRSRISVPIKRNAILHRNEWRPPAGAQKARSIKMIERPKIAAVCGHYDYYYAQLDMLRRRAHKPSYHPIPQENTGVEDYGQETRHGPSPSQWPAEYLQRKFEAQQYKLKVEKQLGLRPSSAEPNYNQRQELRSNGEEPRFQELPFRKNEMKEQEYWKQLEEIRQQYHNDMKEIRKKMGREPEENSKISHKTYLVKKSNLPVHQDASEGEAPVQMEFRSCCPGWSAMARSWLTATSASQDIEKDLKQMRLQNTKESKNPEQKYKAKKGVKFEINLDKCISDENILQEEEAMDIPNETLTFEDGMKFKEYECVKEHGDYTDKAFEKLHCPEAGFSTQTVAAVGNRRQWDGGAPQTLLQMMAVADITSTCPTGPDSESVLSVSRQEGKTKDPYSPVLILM
Sequence of UniProt P36897 (whole entry, looked up): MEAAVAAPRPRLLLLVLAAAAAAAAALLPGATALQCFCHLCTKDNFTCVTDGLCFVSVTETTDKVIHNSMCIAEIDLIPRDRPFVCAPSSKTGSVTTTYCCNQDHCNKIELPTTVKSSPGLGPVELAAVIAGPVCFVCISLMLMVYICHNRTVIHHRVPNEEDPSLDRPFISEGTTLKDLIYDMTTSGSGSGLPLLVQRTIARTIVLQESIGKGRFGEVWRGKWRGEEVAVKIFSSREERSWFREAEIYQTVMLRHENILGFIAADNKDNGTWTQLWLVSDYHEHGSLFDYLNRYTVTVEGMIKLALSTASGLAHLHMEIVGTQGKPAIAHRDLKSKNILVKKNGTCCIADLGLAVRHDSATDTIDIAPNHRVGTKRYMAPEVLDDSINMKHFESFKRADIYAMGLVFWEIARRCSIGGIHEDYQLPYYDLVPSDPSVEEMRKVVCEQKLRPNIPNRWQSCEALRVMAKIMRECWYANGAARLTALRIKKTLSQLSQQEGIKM
Sequence of UniProt P31152 (whole entry, looked up): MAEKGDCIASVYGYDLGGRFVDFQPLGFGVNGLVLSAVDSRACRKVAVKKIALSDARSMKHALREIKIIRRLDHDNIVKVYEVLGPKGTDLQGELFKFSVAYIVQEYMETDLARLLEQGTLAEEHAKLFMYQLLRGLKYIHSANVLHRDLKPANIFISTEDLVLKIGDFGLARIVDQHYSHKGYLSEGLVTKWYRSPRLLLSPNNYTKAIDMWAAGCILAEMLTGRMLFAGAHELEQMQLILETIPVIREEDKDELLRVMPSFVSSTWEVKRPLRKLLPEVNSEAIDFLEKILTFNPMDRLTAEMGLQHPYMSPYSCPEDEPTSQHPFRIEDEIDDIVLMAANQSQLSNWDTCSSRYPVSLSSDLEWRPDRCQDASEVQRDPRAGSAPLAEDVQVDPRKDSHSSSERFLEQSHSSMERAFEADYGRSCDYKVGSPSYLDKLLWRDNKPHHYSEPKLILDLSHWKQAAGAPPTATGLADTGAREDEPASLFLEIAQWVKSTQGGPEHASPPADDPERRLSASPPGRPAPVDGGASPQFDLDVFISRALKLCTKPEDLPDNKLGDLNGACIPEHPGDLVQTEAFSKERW
Sequence of UniProt P78362 (whole entry, looked up): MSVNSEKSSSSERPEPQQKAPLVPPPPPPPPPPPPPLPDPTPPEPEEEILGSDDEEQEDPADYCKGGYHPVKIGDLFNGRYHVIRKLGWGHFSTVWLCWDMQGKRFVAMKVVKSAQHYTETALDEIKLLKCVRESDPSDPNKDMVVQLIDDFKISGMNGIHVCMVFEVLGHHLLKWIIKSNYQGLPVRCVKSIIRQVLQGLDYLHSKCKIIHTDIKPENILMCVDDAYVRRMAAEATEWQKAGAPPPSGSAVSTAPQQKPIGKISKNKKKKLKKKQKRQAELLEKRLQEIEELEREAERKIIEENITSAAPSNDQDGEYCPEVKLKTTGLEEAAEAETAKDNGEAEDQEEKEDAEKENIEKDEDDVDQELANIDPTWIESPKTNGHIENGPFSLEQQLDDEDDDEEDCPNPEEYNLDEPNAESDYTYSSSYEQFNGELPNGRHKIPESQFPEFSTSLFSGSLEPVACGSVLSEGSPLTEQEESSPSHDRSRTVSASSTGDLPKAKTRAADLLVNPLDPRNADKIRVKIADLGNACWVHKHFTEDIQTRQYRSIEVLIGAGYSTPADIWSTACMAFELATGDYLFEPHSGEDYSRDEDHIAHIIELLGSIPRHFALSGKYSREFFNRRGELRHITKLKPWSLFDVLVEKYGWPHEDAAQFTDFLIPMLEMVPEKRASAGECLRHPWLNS
Sequence of UniProt O14936 (whole entry, looked up): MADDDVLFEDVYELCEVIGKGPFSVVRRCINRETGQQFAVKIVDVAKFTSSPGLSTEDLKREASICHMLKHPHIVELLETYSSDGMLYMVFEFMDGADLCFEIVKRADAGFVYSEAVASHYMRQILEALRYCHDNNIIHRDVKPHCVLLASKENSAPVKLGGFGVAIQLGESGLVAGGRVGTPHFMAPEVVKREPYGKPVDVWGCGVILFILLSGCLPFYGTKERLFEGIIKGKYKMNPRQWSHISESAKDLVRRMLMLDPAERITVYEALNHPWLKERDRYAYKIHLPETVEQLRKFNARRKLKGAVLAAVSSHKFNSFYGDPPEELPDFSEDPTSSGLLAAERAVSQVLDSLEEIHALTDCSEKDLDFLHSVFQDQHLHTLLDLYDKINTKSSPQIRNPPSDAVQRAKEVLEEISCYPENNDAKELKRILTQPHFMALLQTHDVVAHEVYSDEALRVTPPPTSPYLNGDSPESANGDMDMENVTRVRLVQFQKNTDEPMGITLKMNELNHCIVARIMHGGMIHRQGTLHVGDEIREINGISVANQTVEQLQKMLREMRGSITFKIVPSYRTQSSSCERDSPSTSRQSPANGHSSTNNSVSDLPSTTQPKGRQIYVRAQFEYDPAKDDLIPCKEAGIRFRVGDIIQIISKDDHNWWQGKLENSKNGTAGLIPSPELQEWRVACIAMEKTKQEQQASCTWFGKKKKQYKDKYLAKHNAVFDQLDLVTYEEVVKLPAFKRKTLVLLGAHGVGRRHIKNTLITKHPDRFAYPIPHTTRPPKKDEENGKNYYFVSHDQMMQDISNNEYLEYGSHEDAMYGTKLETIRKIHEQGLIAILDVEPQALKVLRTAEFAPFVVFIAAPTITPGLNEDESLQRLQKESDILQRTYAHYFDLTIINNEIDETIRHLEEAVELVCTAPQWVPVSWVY

Set 1 — cell line: mouse MPNST tumor cells; method: high-content immunofluorescence imaging; measured: nuclear SOX9; concentration: 10 µM; time: 12 h; notes: mean of 2 replicates; baseline: DMSO control; direction: higher = more nuclear SOX9
`CCn1c(=O)[nH]c2cc(Cl)c(Cl)cc21` — result for “nuclear SOX9 intensity”: 106 % of DMSO.
Under “nuclear SOX9 intensity”, `CCOc1ccc(-n2c(C(C)N(Cc3cccnc3)C(=O)Cc3ccc(F)c(C(F)(F)F)c3)nc3ncccc3c2=O)cc1` (stereo not drawn) is recorded as 99.2 % of DMSO.
`COc1ccc(CC2NCCc3c2[nH]c2ccc(C)cc32)c(Cl)c1OC` (stereo not drawn) — result for “nuclear SOX9 intensity”: 168 % of DMSO.
`CCc1cccc(CC)c1NC(=O)CN(CC(=O)O)CC(=O)O` — result for “nuclear SOX9 intensity”: 99.2 % of DMSO.
`Nc1nc(/C(=C/CC(=O)O)C(=O)N[C@@H]2C(=O)N3C(C(=O)O)=CCS[C@H]23)cs1` — result for “nuclear SOX9 intensity”: 95 % of DMSO.
`CC1CC(OC(=O)c2ccccc2O)CC(C)(C)C1` (stereo not drawn): “nuclear SOX9 intensity” 103 % of DMSO.
Under “nuclear SOX9 intensity”, `OCCN1C[C@H](O)[C@@H](O)[C@H](O)[C@H]1CO` is recorded as 91.3 % of DMSO and 96.8 % of DMSO and 105 % of DMSO.
`CCCCOc1c(C(=O)c2c(F)cc(C)cc2F)c[nH]c2nncc1-2` — result for “nuclear SOX9 intensity”: 107 % of DMSO.
Under “nuclear SOX9 intensity”, `CCN(CC)CCOCCOC(=O)C1(c2ccccc2)CCCC1` is recorded as 130 % of DMSO.
`C#C[C@]1(O)CC[C@H]2[C@@H]3CCC4=CC(=O)CC[C@@H]4[C@H]3CC[C@@]21C` — result for “nuclear SOX9 intensity”: 89.8 % of DMSO.
For `Cc1cn([C@H]2C[C@H](N=[N+]=[N-])[C@@H](CO)O2)c(=O)[nH]c1=O`, “nuclear SOX9 intensity” read 133 % of DMSO.
`COc1cc(C(=O)NS(=O)(=O)c2ccccc2C)ccc1Cc1cn(C)c2ccc(NC(=O)OC3CCCC3)cc12` — result for “nuclear SOX9 intensity”: 94.3 % of DMSO and 93.8 % of DMSO.
Under “nuclear SOX9 intensity”, `CN(C)C(=N)NC(=N)N` is recorded as 95.7 % of DMSO and 104 % of DMSO and 94.7 % of DMSO.
For `Cc1cc(CN2CCN(c3c(Br)cnc4nc(-c5ccc(N6CCN(C)CC6)cc5)[nH]c34)CC2)no1`, “nuclear SOX9 intensity” read 166 % of DMSO.
Under “nuclear SOX9 intensity”, `NS(=O)(=O)c1cc2c(cc1Cl)NC(C1CC3C=CC1C3)NS2(=O)=O` (stereo not drawn) is recorded as 98.3 % of DMSO.
Under “nuclear SOX9 intensity”, `COc1cccc(N(C)C(=S)Oc2ccc3c(c2)CCCC3)n1` is recorded as 116 % of DMSO.
`CC(=O)NC1C(OC(C)C)OC(COC(C)=O)C(OC(C)=O)C1OC(C)=O` (stereo not drawn) — result for “nuclear SOX9 intensity”: 105 % of DMSO.

Set 2 — read-out: enzyme activity; action: inhibitor; concentration: 10 µM
Target: Calcium/calmodulin-dependent protein kinase type II subunit alpha (CAMK2A, Homo sapiens, UniProt Q9UQM7)
Sequence of UniProt Q9UQM7 (whole entry, looked up): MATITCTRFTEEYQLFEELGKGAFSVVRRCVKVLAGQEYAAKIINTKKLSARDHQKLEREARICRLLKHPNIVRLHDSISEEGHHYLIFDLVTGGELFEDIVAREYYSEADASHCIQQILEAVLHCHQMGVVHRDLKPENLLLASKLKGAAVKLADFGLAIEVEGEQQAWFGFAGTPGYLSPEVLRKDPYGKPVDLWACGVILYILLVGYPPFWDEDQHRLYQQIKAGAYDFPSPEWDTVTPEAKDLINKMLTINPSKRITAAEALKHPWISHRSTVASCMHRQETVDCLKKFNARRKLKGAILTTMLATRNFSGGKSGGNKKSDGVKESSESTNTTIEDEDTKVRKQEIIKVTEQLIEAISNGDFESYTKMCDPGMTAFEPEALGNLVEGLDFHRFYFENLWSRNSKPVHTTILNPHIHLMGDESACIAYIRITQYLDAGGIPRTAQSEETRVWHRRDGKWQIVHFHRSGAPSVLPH
`O=C(O)c1c(Cl)c(Cl)c(Cl)c(Cl)c1-c1c2cc(I)c(=O)c(I)c-2oc2c(I)c(O)c(I)cc12` has an inhibition of 26%.
`Oc1ccc([C@H]2Oc3cc(O)cc(O)c3C[C@H]2O)cc1` gave an inhibition of -43%.
`O=c1cc(-c2ccc(O)cc2)oc2cc(O[C@@H]3O[C@H](CO)[C@@H](O)[C@H](O)[C@H]3O)cc(O)c12` gave an inhibition of 24%.
`CN1CCC(=C2c3ccccc3CC(=O)c3sccc32)CC1` gave an inhibition of 2%.
`COc1ccc([C@@H]2COc3cc(O[C@@H]4O[C@H](CO)[C@@H](O)[C@H](O)[C@H]4O)ccc3C2)c(O)c1OC` gave an inhibition of 22%.
`N=C(N)c1ccc(/N=N/Nc2ccc(C(=N)N)cc2)cc1` gave an inhibition of -10%.
`CC(C)=CCC[C@](C)(O[C@@H]1O[C@H](CO[C@@H]2OC[C@H](O)[C@H](O)[C@H]2O)[C@@H](O)[C@H](O)[C@H]1O)[C@H]1CC[C@]2(C)[C@@H]1[C@H](O)C[C@@H]1[C@@]3(C)CC[C@H](O[C@@H]4O[C@H](CO)[C@@H](O)[C@H](O)[C@H]4O[C@@H]4O[C@H](CO)[C@@H](O)[C@H](O)[C@H]4O)C(C)(C)[C@@H]3CC[C@]12C` gave an inhibition of 21%.
`O=C(O)C(CO)c1ccccc1` (stereo not drawn) has an inhibition of 3%.
With `NC(=O)C(c1ccccc1)(c1ccccc1)C1CCN(CCc2ccc3c(c2)CCO3)C1` (racemic) the inhibition was 13%.
For `COc1ccc(C(=O)/C=C/c2ccc(O)cc2)c(O)c1CC=C(C)C`, the inhibition was -43%.
`Cc1c(O)c(C)c2occ(Cc3ccc4c(c3)OCO4)c(=O)c2c1O` has an inhibition of 23%.
`CC1(C)CC[C@]2(C(=O)O)CC[C@]3(C)C(=CC[C@@H]4[C@@]5(C)CC[C@@H](O)C(C)(C)[C@@H]5CC[C@]43C)[C@@H]2C1` gave an inhibition of -13%.
`COc1ccccc1OC(=O)c1ccccc1OC(C)=O` gave an inhibition of -15%.
With `Clc1ccccc1C(c1ccccc1)(c1ccccc1)n1ccnc1` the inhibition was -13%.
`CCCC[C@H](NC(C)=O)C(=O)N[C@H]1CC(=O)NCCCC[C@@H](C(=O)O)NC(=O)[C@H](Cc2c[nH]c3ccccc23)NC(=O)[C@H](CCCN=C(N)N)NC(=O)[C@@H](Cc2ccccc2)NC(=O)[C@H](Cc2cnc[nH]2)NC1=O` has an inhibition of -9%.
The inhibition of `CC1(C)CC[C@]2(C(=O)O)CC[C@]3(C)C(=CC[C@@H]4[C@@]5(C)C[C@@H](O)[C@H](O)[C@@](C)(CO)[C@@H]5CC[C@]43C)[C@@H]2C1` is reported as -1%.
For `CN1CCC(=C2c3ccccc3CCn3c(C=O)cnc32)CC1`, the inhibition was 2%.
The inhibition of `O=c1ccc2cc(O)c(O[C@@H]3O[C@H](CO)[C@@H](O)[C@H](O)[C@H]3O)cc2o1` is reported as 32%.
With `Cc1ncc(C[n+]2csc(CCOP(=O)(O)O)c2C)c(N)n1` the inhibition was 7%.
For `CC(=O)OCC(=O)[C@H]1CC[C@H]2[C@@H]3CCC4=CC(=O)CC[C@]4(C)[C@H]3CC[C@]12C`, the inhibition was -11%.

Set 3 — read-out: cell-free assay; method: competition with immobilised ligand; concentration: 1 µM
Compound: CNCc1ccccc1-c1csc([C@H](C)Nc2nc(C)nc3cc(OC)c(OC)cc23)c1
It gave 95% for remaining binding (MAPK4 (Homo sapiens, UniProt P31152)).
The remaining binding was 93% (COQ8B (Homo sapiens, UniProt Q96D53)).
The remaining binding was 100% (TBK1 (Homo sapiens, UniProt Q9UHD2)).
CDKL5 (Homo sapiens, UniProt O76039) — remaining binding: 87%.
For TGFBR1 (Homo sapiens, UniProt P36897): remaining binding read 80%.
For Tyrosine-protein kinase ABL1, phosphorylated (ABL1, Homo sapiens, UniProt P00519, Y253F): remaining binding read 94%.
The remaining binding was 73% (VRK2 (Homo sapiens, UniProt Q86Y07)).
SRPK2 (Homo sapiens, UniProt P78362) — remaining binding: 52%.
It gave 100% for remaining binding (CDK3 (Homo sapiens, UniProt Q00526)).
For NEK5 (Homo sapiens, UniProt Q6P3R8): remaining binding read 100%.
For PIK3CA (Homo sapiens, UniProt P42336, E545K): remaining binding read 75%.
It gave 100% for remaining binding (WNK1 (Homo sapiens, UniProt Q9H4A3)).
It gave 71% for remaining binding (CASK (Homo sapiens, UniProt O14936)).

Further values, each from its own experiment
The remaining activity of `CC(C)S(=O)(=O)c1ccc2nccc(Nc3ccc4sc(C5CCCC5)nc4c3)c2c1` is reported as 99.5% (Serine/threonine-protein kinase DCLK1 (DCLK1, Homo sapiens, UniProt O15075); kinase activity, inhibitor; 1 µM).

Some of these lines once more (set 3):
For TGFBR1 (Homo sapiens, UniProt P36897): remaining binding read 80%.
For NEK5 (Homo sapiens, UniProt Q6P3R8): remaining binding read 100%.
It gave 100% for remaining binding (WNK1 (Homo sapiens, UniProt Q9H4A3)).
SRPK2 (Homo sapiens, UniProt P78362) — remaining binding: 52%.
The remaining binding was 93% (COQ8B (Homo sapiens, UniProt Q96D53)).
For Tyrosine-protein kinase ABL1, phosphorylated (ABL1, Homo sapiens, UniProt P00519, Y253F): remaining binding read 94%.
